Results from different studies.
Numbered parts are unrelated; each lists some results of a single study.

Sample 1
Target: Interferon regulatory factor 7, full length, phosphomimetic (IRF7, Homo sapiens, UniProt Q92985, residues 1-503, S471D/S472D/S475D/S476D/S477D/S483D/S484D/S487D)
Method: protein-binding microarray
Form: double-stranded DNA, one strand shown
Sample: in vitro
Concentration: 2200 nM top
Notes: 60-bp whole probe
Added: salmon DNA 0.4 mg/ml
Baseline: random background probes
Reading: higher = stronger binding
Quantity: fitted relative affinity
Target sequence (chain): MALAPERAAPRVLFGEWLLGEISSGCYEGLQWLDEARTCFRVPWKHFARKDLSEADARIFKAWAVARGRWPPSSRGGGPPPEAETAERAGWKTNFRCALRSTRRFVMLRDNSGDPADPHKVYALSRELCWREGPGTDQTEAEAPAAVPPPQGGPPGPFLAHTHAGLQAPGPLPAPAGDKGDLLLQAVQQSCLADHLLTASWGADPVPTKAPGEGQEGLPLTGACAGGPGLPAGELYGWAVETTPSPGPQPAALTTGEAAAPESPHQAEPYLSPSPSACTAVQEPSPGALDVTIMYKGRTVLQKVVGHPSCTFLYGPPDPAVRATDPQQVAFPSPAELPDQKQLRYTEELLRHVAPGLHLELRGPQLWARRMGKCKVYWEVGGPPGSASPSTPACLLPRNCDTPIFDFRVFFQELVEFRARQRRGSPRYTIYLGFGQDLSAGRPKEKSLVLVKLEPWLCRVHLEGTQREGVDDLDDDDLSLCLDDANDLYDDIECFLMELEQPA
Sequence = GCCTAGCACTCAATTTTCCAAATGCCACTGTGCTAGGTCTTGATTCGCTTGACGCTGCTG; value = 2.65 z-score
Sequence = GCCTAGCACACATTTTTTTCATTATTGTTGTGCTAGGTCTTGATTCGCTTGACGCTGCTG; value = 1.87 z-score
Sequence = GCCTAGCACGTAGATCTCAGTATCGATTAGTGCTAGGTCTTGATTCGCTTGACGCTGCTG; value = 0.333 z-score
Sequence = GCCTAGCACTTAGATTCCCGTTTCGATTAGTGCTAGGTCTTGATTCGCTTGACGCTGCTG; value = 4.29 z-score

Sample 2
Target: Histone acetyltransferase KAT6A, winged helix 1, GST fusion (KAT6A, Homo sapiens, UniProt Q92794, residues 1-85)
Method: protein binding microarray
Form: double-stranded DNA, one strand shown
Sample: in vitro
Concentration: not given
Notes: 8-mer, flanks averaged, mean of 2 arrays, mostly near background
Baseline: not given
Reading: higher = stronger binding
Quantity: E-score
Construct (chain): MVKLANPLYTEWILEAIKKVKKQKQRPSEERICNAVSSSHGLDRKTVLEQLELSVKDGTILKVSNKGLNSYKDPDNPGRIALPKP
Sequence = AAAGTCTA; value = -0.128
Sequence = GAAAGGAA; value = -0.0766
Sequence = CACACACA; value = -0.307

Sample 3
Target: Centromere-binding protein 1, full length, His-tagged (CBF1, Saccharomyces cerevisiae, UniProt P17106, residues 1-351)
Sequence of UniProt P17106 (whole entry, looked up): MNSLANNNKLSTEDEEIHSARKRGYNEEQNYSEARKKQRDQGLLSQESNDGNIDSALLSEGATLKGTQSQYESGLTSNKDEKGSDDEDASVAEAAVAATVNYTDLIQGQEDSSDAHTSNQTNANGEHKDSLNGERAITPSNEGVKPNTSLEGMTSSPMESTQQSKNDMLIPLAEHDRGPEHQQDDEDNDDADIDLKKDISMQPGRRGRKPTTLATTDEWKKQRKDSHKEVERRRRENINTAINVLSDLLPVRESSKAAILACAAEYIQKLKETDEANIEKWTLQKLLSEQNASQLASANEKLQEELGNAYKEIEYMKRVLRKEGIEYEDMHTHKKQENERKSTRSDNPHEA
Method: competition protein-binding microarray
Form: double-stranded DNA, one strand shown
Sample: in vitro
Concentration: 2 µM
Notes: whole 60-bp probe, lowest competitor level
Added: Pho4 competitor, 0.05 µM
Reading: higher = stronger binding
Quantity: fluorescence intensity
Sequence = CGGGGTTAAGTTTGTCACGACACTTGCTTGCAGCAGGTCTTGATTCGCTTGACGCTGCTG; value = 197 a.u.
Sequence = TTTTCAAGGGATAAGCACATGACAATGGGCGACAAAGTCTTGATTCGCTTGACGCTGCTG; value = 366 a.u.
Sequence = TTGTTATTTTGTCCGCGCATGTCCCGGACCCGCCATGTCTTGATTCGCTTGACGCTGCTG; value = 58.9 a.u.

Single results of other studies
Molecule = PhoQ, residues 284 288 289 292 302 303 SMYGEC; target = PhoP, residues 12 14 15 18 19 SGWQI (Escherichia coli, UniProt P23836); test = Sort-seq, refers to: YFP reporter; system = E. coli; setting = PhoQ-PhoP variant library, added: 10 µM Mg2+; scale = baseline: high Mg2+ state, higher = stronger signaling; quantity = fold induction; value = 3.55

Repeated from above (sample 1):
Sequence = GCCTAGCACGTAGATCTCAGTATCGATTAGTGCTAGGTCTTGATTCGCTTGACGCTGCTG; value = 0.333 z-score
